# Measured values of several laboratories.
# Each line is one published result; not all experiments were run side by side. ± gives the spread as reported.
test,test system,conditions,AUC(0-24 h),SMILES
,"human, plasma","oral, 1000 mg once daily, steady state geometric mean",1720 ng·h/mL,CC1=C(c2cccc(O)c2)[C@H](c2ccc(OCCN3CC(CF)C3)cc2)Oc2ccc(O)cc21
,"human patients, plasma","oral, 800 mg twice daily, day 1, approximate mean",~14100 ng·h/mL,O=C(NO)c1ccc(CN(c2cnccn2)c2cnccn2)cc1
geometric mean,human,"oral, 50 mg single dose, fasted, liquid",3680 ng·h/mL,Cl.[2H]C([2H])([2H])CC(=O)c1cnc(NC(=O)C2CC2)cc1Nc1cccc(-c2ncn(C([2H])([2H])[2H])n2)c1OC
,"humanized SCID mice, blood","3 mg/kg once daily, 6 days, infected",19.3 µM·h,Cn1nc2c(=O)n(C3CC3)cnc2c1[C@](O)(c1cnc(C(F)(F)F)c(Cl)c1)C(F)(F)F
item: total radioactivity,"human male, plasma","oral, 200 mg",18700 ng eq. ·h/mL,Cc1cc(C)c(CNC(=O)c2cc(Cl)c3c(c2C)O[C@@](C)([C@H]2CC[C@H](N(C)C)CC2)O3)c(=O)[nH]1
,"human, plasma","oral, 20 mg once daily, day 1",580 ng·h/mL,N#CCC1CCN(c2nc(Nc3ccc(N4CCC(O)CC4)cc3)c3c(=O)[nH]ncc3n2)CC1
,"human, plasma","oral, 50 mg daily, day 8, with: docetaxel",20.5 ± 11.5 µM·h,C#Cc1cccc(Nc2ncnc3cc(OCCOC)c(OCCOC)cc23)c1
,human patients,"oral, dose not given, day 29, with venetoclax 6 mg once daily",9840 ng·h/mL,COc1cc2nccc(Oc3ccc(NC(=O)c4cc5c(n(-c6ccccc6)c4=O)CCCC5=O)nc3)c2cc1OC
,"human, plasma","oral, dose not given, day 14, with: rosuvastatin",149 ng·h/mL,Cc1cc2nc3c(=O)[nH]c(=O)nc-3n(C[C@H](O)[C@H](O)[C@H](O)CO)c2cc1C

# Repeated from above:
test,test system,conditions,AUC(0-24 h),SMILES
,"human, plasma","oral, 20 mg once daily, day 1",580 ng·h/mL,N#CCC1CCN(c2nc(Nc3ccc(N4CCC(O)CC4)cc3)c3c(=O)[nH]ncc3n2)CC1
